Measurements from different studies.
Every numbered part comes from another study and shows a few of its results, in no order.

Set 1 — method: RNA Bind-n-Seq; molecule type: RNA; matrix: in vitro; tested at: 365 nM; baseline: no-protein control; direction: higher = stronger binding
Target: RNA binding protein fox-1 homolog 2, RRM domain, GST-SBP tag (RBFOX2, Homo sapiens, UniProt O43251-10, residues 100-194)
Setting: natural RNA segment, single round, ends assumed
Target sequence (chain): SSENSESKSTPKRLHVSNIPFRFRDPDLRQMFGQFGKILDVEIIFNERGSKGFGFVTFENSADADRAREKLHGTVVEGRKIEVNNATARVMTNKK
Sequence	RBNS enrichment (R)
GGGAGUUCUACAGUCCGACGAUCUUUCUCCAGUAUAUUGUUGGUCACUCACAAAUGAUUCAUUUGAACACAUUUUAGGGAUAAGUAAUCAAAACCAUGAACUUUUAUUUGACUUCCCACCAAUGUCUAAACUAUGGAAUUCUCGGGUGCCAA	0.448
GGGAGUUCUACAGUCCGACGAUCUCUUGAGUUGCUGAUAGGAGAUGUGAGUUAUGCCCAGAGAUGUCUUAUCGUGAGGAAAAAGAAACUUCCUUUUGUUCACAUUUAGGACUCUCAGUGCCAUAUGAAGUAGCUGGAAUUCUCGGGUGCCAA	0.539
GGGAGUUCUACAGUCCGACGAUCCACUAUUACCCAACCAUGAAGCCACCCAAGUAGUGGAGCCAGGACAUAAGUUAUUGUUCACAUUAAAGAAUCAUGUUCCCUGUGUACAUUUUAAGCAAAGGAAAAGUCUUUGGAAUUCUCGGGUGCCAA	0.324
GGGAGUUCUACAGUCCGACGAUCGGCCUCAUCUGGGACUGUUGGUUUAGUAAGCCUGUGGUCAACAAGUCACACCUACAUGACUGACCCCCCACCCCCAGUUAAAAGUCUAGCCCAACAGUAUAGCUGGGUGAUGGAAUUCUCGGGUGCCAA	0.273
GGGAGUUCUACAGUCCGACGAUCAUUAAUUUUAAAAGUCAAUCACUAAGAGCAUCGGCUUUGGGCCCUGAUGGGCAGGCAUUUCCCUGGAAAGGGGGUGAACUACCUACCUCUCCUCAAGACAGCCGAAGGGUUGGAAUUCUCGGGUGCCAA	0.227
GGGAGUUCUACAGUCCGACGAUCUAGAAUUGAAACAACUGUGUCUUAGACAUUUGUUUGAAAAAGCUUCAUCAGGCCUUGGAGCAGUCACUGCUUUAUUCCGCAAAAAUUAUUUGGUAGGAAAUUUUUGGGAGUGGAAUUCUCGGGUGCCAA	0.529
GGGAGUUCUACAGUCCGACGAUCUGAAAAGGUACACAUGUAAAAUUUAGGAAAAUAACUAAAGUAGGGGCUGGAACCAUAAGAAGAAUGUUUAUCAGCACGUUCAUUUAUUAUUUUGGAUUUGGAACUUGGCUUGGAAUUCUCGGGUGCCAA	2.25
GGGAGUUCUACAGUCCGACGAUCCUUCAAUUGCUUUGCACUUUUCCGUUUCAGCGGAAGACCUGAAGAGUGGUCAGAACAGAGCCUUUGAUUUUUAUUAUGGUUAUUUUAUUGAUUAUUACUGGCAAAAACGGUGGAAUUCUCGGGUGCCAA	0.35

Set 2 — method: protein-binding microarray; molecule type: double-stranded DNA, one strand shown; matrix: in vitro; tested at: 940 nM top; setting: 60-bp whole probe; with: salmon DNA 0.4 mg/ml; baseline: random background probes; direction: higher = stronger binding; constant ends, left off below: GCCTAGCAC … GTCTTGATTCGCTTGACGCTGCTG
Target: Interferon regulatory factor 5, full length, phosphomimetic (IRF5, Homo sapiens, UniProt Q13568-2, residues 1-514, S451D/S453D/S456D/S462D)
Sequence	fitted relative affinity [z-score]
GACGGTTTGCTTCTCCTGACGTGCTAG	0.439
TAGCTTCCATTTTCTGAACGTGTGCTA	0.461
GACGAACTGAGTTACGAGACGTGCTAG	-0.534
TCAAACTTAGTTTTCAAACTGTGCTAG	-0.144
TTACCTTTTCACTTTACACAGTGCTAG	1.91
GACGATTTCAGTATCGCGACGTGCTAG	0.874
TTAGATTTCGGGACTGGGTTAGTGCTA	0.566
TTAGCTTTCCTTATCCTTTAGTGCTAG	1.3
TTAGATTTCCTTATCCTTTAGTGCTAG	0.719
TCAATATTGAGACTCATACTGTGCTAG	0.194
TTACAGATGTTTTTCATTTTGTGCTAG	0.703
TTAGATTACGGGTTTCGATTAGTGCTA	5.39
CCTAGTTGTACTTTCTATCTGTGCTAG	1.05
ATTTTAATCACATATACACTGGTGCTA	0.415
GGCGGTATCGGTTTCGGGACGTGCTAG	10.4
TAGCTTCTCAATTAAAAAAAGTGCTAG	0.596
GACGATTTCGGGTTTCGAGAAGTGCTA	2.3
GACGGTTTCGGGACTTGGGACGTGCTA	6.28
TTAGATTTCAATTCCGATTAGTGCTAG	0.54

Set 3 — method: universal PBM; molecule type: double-stranded DNA, one strand shown; matrix: in vitro; tested at: 600 nM; direction: higher = stronger binding
Target: Sal-like protein 4, full length isoform A (SALL4, Homo sapiens, UniProt Q9UJQ4, residues 1-1053)
Chain of UniProt Q9UJQ4 (whole entry, looked up): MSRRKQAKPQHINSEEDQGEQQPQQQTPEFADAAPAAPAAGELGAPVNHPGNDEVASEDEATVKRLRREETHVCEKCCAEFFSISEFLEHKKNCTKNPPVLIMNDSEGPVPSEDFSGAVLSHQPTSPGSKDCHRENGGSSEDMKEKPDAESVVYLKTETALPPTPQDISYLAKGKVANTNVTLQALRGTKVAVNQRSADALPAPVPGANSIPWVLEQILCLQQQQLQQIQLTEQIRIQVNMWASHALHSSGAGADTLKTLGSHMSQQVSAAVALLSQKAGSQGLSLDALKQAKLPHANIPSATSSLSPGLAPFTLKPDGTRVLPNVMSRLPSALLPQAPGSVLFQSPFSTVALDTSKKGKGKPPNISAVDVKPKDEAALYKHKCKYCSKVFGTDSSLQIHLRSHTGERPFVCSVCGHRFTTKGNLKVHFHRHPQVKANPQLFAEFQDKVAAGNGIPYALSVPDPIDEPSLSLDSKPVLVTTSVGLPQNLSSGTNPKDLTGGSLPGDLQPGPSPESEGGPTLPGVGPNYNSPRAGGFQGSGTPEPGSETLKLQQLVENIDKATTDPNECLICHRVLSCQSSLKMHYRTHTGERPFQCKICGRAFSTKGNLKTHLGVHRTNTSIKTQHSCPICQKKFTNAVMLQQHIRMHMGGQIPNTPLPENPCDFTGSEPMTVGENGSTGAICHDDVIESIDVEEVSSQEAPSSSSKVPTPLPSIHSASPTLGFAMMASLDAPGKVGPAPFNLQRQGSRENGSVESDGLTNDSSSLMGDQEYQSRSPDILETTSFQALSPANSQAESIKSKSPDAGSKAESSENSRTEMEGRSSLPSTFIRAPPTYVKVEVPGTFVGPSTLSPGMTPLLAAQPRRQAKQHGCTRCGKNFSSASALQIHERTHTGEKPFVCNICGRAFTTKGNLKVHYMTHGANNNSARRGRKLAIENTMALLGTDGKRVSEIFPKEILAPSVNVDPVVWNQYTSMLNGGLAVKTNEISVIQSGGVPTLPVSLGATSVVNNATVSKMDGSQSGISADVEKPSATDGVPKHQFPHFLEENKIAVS
Setting: 8-mer, flanks averaged, mean of replicates
Sequence	E-score
AACGTGCA	0.0219
ACTACCTC	-0.0134
CACCAGCA	-0.159
AGGTTGAT	-0.0968
GTAAATAA	0.35
GAGGTACC	-0.395
ACAACTGA	0.175
GGTTATGA	0.341
CGCGCAAG	-0.162
GAAAGGAA	-0.0348
CGCTGAAC	-0.0406
ATTCTTAC	0.245
AGCCCGAA	-0.208
GGAGTAAC	-0.0976
CCGGTACG	-0.269
CCAATTAC	0.0821
ACTGGCGC	-0.194
ATACACGG	0.19
ATGCTAGA	0.174

Set 4 — method: RNA Bind-n-Seq; molecule type: RNA; matrix: in vitro; tested at: not given; baseline: input RNA pool; direction: higher = stronger binding
Target: RING finger protein unkempt homolog, zinc fingers 1-6, GST-SBP tag (UNK, Homo sapiens, UniProt Q9C0B0, residues 30-357)
Setting: RNA with constant flanks, human-mouse chimeric sites, ends assumed
Target sequence (chain): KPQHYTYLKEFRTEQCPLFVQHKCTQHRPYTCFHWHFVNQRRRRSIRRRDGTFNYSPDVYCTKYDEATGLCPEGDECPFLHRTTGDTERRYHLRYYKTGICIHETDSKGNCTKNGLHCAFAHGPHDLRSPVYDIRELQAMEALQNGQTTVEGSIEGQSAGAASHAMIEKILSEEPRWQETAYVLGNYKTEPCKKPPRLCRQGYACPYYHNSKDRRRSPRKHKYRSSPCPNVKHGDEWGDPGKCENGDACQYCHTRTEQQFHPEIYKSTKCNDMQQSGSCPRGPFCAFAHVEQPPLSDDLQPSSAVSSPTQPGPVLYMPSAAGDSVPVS
Sequence	bound/input enrichment [ratio]
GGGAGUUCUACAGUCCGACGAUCCUGUGUGUGCUGAAUAAAUGGCUUGUAAAGAAGUUUUUCCAAGCUGUACCCAUGUACGUUAUUAUAGUUGCUGCAAAAUGUCUCUUAUGAUAUUGAUUUUAUUUGUUAACUGAAGGUCUCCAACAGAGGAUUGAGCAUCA	0.662
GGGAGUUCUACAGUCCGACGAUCCACAGAGCAGCACCUACCCCCUCCUCCUUUCCACACCUGCAAACUCUUUUACUUGGGCUGAAUAUUUAGUGUAAUUAACAUCGCAGCUUUGAGGGCUCUGUGGCAAAUUCCCGGAUUAAACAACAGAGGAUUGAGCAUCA	1.38
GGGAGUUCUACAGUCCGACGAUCGGAUUCCGCUUCCGGUUCCGUUGGGCUCGGUUCUCUCCUGAGCUACGUGUCUCUACGCUCUCAAUCCCGGUUGGGUAAAACAUGGAUCAGGUAAUGCAGUUUGUGGAGCCCAGCCGGCAGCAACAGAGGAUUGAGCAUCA	0.064
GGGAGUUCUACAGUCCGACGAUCGCUCUUGGGAAUGUAAUCAGCGCCUUGGGGGACAAGAGCAAGAGAGCCACCCAUGUCCCUUACAGAGACUCUAAGCUGACAAGACUCCUACAGGAUUCCCUUGGGGGUAACAGCCAAACCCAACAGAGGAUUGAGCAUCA	0.199
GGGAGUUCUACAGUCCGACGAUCCAGCCUCAGAGCCCAGACUUCCUGGAUAUUACCAACCCUAAAGCGGUAUUAGAAAAUGCAUUGAGAAACUUCGCCUGUCUGACCACCGGAGAUGUGAUUGCUAUCAACUACAAUGAGAAGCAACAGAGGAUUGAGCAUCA	0.422
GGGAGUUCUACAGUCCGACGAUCCAGCCUCAGAGCCCAGACUUCCUGGACAUCACCAACCCUAAAGCGGUAUUAGAAAAUGCAUUGAGAAACUUCGCCUGUCUGACGACUGGAGAUGUGAUUGCUAUCAACUACAAUGAGAAGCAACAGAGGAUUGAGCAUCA	0.633
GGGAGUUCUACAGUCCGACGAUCCCCCACAACCAUUUGCAGGUCUGGAACUGCACUCUCUUUUUUAAAAAACAUGUAUACAUUUUAGGGCUGUAGACUUAUUUUCCUGGUUUUGUUUUUCAUUGCUGACUUUUGAGCACAGAACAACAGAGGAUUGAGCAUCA	1.47
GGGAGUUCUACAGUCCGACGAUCUACUACUGAAUCUGUGAUAUUGGCAAUUAUUAUUAUGGCCAGGGUCAUCCCAUGAAGCCUCAUAGAAUCCGGAUGACUCAUAACUUGCUGCUAAAUUAUGGCUUAUACCGAAAAAUGGAACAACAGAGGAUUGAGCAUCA	0.226

A few entries again (set 4):
Sequence	bound/input enrichment [ratio]
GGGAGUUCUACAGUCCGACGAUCCACAGAGCAGCACCUACCCCCUCCUCCUUUCCACACCUGCAAACUCUUUUACUUGGGCUGAAUAUUUAGUGUAAUUAACAUCGCAGCUUUGAGGGCUCUGUGGCAAAUUCCCGGAUUAAACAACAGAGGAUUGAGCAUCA	1.38
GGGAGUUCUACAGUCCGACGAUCGGAUUCCGCUUCCGGUUCCGUUGGGCUCGGUUCUCUCCUGAGCUACGUGUCUCUACGCUCUCAAUCCCGGUUGGGUAAAACAUGGAUCAGGUAAUGCAGUUUGUGGAGCCCAGCCGGCAGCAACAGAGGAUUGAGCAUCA	0.064
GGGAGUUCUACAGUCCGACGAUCGCUCUUGGGAAUGUAAUCAGCGCCUUGGGGGACAAGAGCAAGAGAGCCACCCAUGUCCCUUACAGAGACUCUAAGCUGACAAGACUCCUACAGGAUUCCCUUGGGGGUAACAGCCAAACCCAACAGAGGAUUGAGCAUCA	0.199
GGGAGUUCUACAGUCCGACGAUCCAGCCUCAGAGCCCAGACUUCCUGGAUAUUACCAACCCUAAAGCGGUAUUAGAAAAUGCAUUGAGAAACUUCGCCUGUCUGACCACCGGAGAUGUGAUUGCUAUCAACUACAAUGAGAAGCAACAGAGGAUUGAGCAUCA	0.422
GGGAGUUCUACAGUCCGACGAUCCAGCCUCAGAGCCCAGACUUCCUGGACAUCACCAACCCUAAAGCGGUAUUAGAAAAUGCAUUGAGAAACUUCGCCUGUCUGACGACUGGAGAUGUGAUUGCUAUCAACUACAAUGAGAAGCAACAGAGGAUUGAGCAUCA	0.633
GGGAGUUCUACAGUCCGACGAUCCCCCACAACCAUUUGCAGGUCUGGAACUGCACUCUCUUUUUUAAAAAACAUGUAUACAUUUUAGGGCUGUAGACUUAUUUUCCUGGUUUUGUUUUUCAUUGCUGACUUUUGAGCACAGAACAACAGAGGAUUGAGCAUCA	1.47
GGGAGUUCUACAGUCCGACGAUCUACUACUGAAUCUGUGAUAUUGGCAAUUAUUAUUAUGGCCAGGGUCAUCCCAUGAAGCCUCAUAGAAUCCGGAUGACUCAUAACUUGCUGCUAAAUUAUGGCUUAUACCGAAAAAUGGAACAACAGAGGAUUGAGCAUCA	0.226
